# Assay results of several laboratories.
# A part holds a random share of what one study measured. Positions count from the first letter of the parent shown.

# Set 1
# Target: ABI1, truncated, D143A, DHFR fusion (Arabidopsis thaliana)
# Method: DHFR PCA, deep sequencing
# Matrix: yeast
# Setting: methotrexate growth selection, single substitutions
# With: (+)-ABA 58 µM
# Baseline: wild-type fitted maximum
# Direction: higher = stronger binding
# Starting sequence: PYL1, truncated, DHFR fusion (Arabidopsis thaliana); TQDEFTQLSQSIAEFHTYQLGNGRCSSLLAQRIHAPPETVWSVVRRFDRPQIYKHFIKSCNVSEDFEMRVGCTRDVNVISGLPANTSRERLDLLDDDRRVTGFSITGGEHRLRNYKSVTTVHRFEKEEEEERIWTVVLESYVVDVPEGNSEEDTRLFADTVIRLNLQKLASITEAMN; partner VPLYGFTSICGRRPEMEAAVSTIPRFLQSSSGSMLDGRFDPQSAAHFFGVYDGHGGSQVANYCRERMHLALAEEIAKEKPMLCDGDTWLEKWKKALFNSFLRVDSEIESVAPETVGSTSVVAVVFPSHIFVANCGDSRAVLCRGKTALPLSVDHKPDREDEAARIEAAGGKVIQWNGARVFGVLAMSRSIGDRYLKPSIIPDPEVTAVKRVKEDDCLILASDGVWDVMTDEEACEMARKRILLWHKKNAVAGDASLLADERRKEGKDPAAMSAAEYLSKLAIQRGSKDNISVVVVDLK
Variant,relative binding score
M68S,63.2%
I12A,41%
E128D,97.9%
T86C,80.9%
R111H,28.7%
W134F,94.3%
T106A,56.6%
A35R,7.29%
F157W,12.4%
T160S,62.7%
T17Y,52.2%
V43A,45.9%
T119M,80%
F124Q,83.1%
Y141M,10.4%
Y115C,9.72%
H55D,68.2%
T173Q,16.8%
V76A,24.9%
R155K,83.5%
D95A,30.7%
R49V,68.9%
W41A,3.3%
F66D,76.2%

# Set 2
# Target: Ras GTPase-activating protein-binding protein 1, RRM domain (G3BP1, Homo sapiens, UniProt Q13283)
# Chain of UniProt Q13283 (whole entry, looked up): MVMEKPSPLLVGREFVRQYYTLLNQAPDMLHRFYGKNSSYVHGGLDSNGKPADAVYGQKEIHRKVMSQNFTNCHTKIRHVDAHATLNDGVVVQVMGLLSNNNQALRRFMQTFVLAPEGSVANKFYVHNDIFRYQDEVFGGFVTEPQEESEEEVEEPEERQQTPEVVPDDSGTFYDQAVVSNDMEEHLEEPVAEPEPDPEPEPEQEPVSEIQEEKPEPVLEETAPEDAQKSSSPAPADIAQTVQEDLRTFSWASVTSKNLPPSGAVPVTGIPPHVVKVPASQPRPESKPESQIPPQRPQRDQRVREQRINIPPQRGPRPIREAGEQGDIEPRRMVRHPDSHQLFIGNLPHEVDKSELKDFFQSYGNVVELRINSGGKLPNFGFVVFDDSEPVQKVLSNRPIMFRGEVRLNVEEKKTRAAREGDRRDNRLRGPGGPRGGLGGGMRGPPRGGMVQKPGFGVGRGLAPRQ
# Method: RNA Bind-n-Seq
# Form: RNA
# Matrix: in vitro
# Tested at: 1 µM
# Setting: whole 134-nt RNA, ends assumed
# With: 150 mM KCl
# Baseline: input library
# Direction: higher = stronger binding
# Shared flanks, not repeated: GGGAGUUCUACAGUCCGACGAUC … UGGAAUUCUCGGGUGUCAAGG
Sequence,log2 enrichment
UCAAGUCCUGUGCUACACAUCGUAUGUACCGAAUCGGGAAAGGGAAAGGAAAGGGAAAGUAUUAUGUUACGCCGUUCGGAUCUGCACUUC,-0.188
GCCAUGCAGGUGGGCAUCUUUGGGAAGUGGGGCAAGGGGGGGAUAGGGAGGGGGGUAACACUUUGGGAACAGGUGGUCCCAGGUCGUUUC,-0.618
UGGGAGGUGGAUUUUGUUUAUUUUUUUAGCUCAUUUCCAGGGGUGGGAAUUUUUUUUAAAUAUGUGUCAUGAAUAAAGUUGUUUUUGAAA,1.94
GCAGGAAGUAAAAACAAAUGGAAAUGCUUCGGAUAGUGGCAGGGGUGGGGGUUGCUAAGGAAAGGGUGGGAUGGGAGUGGGUAAAGACUU,0.731
UGGGAGGUGGAUUUUGUUUACUUUUUUAGCUCAUUUCCAGGGGUGGGAAUUUUUUUUUAAUAUGUGUCAUGAAUAAAGUUGUUUUUGAAA,0.944
UCAAGUCCUGUGCUACACAUCGUAUGUACCGAAUCGGGAGGGAAAAAGGGAGGGAAAGUAUUAUGUUACGCCGUUCGGAUCUGCACUUCC,0.846
UAACUUUAGAGGAGGAUCUGAUGGAUCUGGCAGUGGACGUGGAUUUGGGGAUGGCUAUAAUGGGUAUGGAGGAGGACCUGGAGGUGGCAA,-0.8
CCUGUGCUACACAUCGUAUGUACCGAAUCGGGGUUUUUUUGGGGUUUGGGGAAAAAGGGGAAAGUAUUAUGUUACGCCGUUCGGAUCUGC,0.317
AAGUCCUGUGCUACACAUCGUAUGUACCGAAUCGGGGAAAGGGGAGGGGAAAGGGGAAAGUAUUAUGUUACGCCGUUCGGAUCUGCACUU,1.11
UUCUGACUCAGAAUGUGCCAAAAAGGCUUUGGAACAACUUAAUGGAUUUGAACUAGCAGGAAGACCAAUGAAAGUUGGUCAUGUUACUGA,-0.198
UGUGCUACACAUCGUAUGUACCGAAUCGGGGAAAAAGGGGUUUUUUUGGGGAAAAAAAGGGGAAAGUAUUAUGUUACGCCGUUCGGAUCU,1.33
UAACUUUAGAGGAGGAUCUGAUGGAUAAGGCAGUGGACGUGGAUUUGGGGAUGGCUAUAAUGGGUAUGGAGGAGGACCUGGAGGUGGCAA,-0.694
GUCCUGUGCUACACAUCGUAUGUACCGAAUCGGAAAAAAAGGUUUUUGGAAAAAAAGGAAAGUAUUAUGUUACGCCGUUCGGAUCUGCAC,-0.198
UCGGAUGGCUUCGCAUUUCCCCAAUACCCCAUUAAACCGUAUCAUCUGAAGAGGAUCCACAGAGCUGUCUUACAUGGUAAUCUAGAGAAA,-0.172

# Set 3
# Target: Sal-like protein 4, full length isoform A (SALL4, Homo sapiens, UniProt Q9UJQ4, residues 1-1053)
# Chain of UniProt Q9UJQ4 (whole entry, looked up): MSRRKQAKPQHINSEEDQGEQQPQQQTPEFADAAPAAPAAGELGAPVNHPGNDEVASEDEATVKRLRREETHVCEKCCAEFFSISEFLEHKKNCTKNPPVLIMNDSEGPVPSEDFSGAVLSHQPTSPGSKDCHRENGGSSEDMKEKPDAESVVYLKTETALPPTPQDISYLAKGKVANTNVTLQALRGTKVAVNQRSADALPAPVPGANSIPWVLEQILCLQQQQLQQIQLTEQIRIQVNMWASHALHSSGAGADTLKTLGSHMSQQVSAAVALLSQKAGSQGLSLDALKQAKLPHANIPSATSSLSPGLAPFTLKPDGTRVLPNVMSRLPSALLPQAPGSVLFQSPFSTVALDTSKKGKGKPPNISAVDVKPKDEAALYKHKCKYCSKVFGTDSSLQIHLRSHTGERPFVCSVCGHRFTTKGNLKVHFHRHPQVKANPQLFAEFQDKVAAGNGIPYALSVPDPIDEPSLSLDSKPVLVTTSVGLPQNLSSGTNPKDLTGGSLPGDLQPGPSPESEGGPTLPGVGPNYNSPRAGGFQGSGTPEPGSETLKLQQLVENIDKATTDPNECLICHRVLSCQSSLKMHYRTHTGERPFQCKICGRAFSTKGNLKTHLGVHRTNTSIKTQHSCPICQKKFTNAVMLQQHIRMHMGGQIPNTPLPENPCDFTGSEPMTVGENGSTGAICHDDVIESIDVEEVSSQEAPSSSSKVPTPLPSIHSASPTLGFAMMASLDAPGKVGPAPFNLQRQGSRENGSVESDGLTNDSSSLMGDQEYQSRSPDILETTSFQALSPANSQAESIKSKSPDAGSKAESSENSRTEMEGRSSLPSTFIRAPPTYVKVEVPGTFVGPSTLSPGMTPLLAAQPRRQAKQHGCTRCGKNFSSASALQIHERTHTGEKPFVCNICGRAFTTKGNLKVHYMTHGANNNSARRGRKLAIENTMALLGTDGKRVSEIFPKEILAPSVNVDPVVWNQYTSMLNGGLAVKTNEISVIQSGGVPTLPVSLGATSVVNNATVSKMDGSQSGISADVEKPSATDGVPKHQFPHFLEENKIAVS
# Method: universal PBM
# Form: double-stranded DNA, one strand shown
# Matrix: in vitro
# Tested at: 600 nM
# Setting: 8-mer, flanks averaged, mean of replicates
# Direction: higher = stronger binding
Sequence,E-score
GGGTGATA,0.0759
AGCGCACA,-0.131
ACTTTCAT,0.215
GTCCCCAA,-0.102
GGCGCCTA,-0.119
TATACGAA,0.248
TCCTGCGA,-0.0369
AACCTCAG,-0.148
AACATACG,0.134
TACACAGA,0.17
CAACTAAC,0.0369
ATTCACAA,0.24
GTTCTAAA,0.142
ATACTCGC,-0.0079
CCTATAGA,0.156
AGTTATAC,0.226
ATGCAGCA,-0.0663
GACTTAGA,0.0204
GACATAAA,0.259
GCTCGTCC,-0.168
AGACCGCC,-0.197
ACGTGAAT,-0.0155
CTATCCAA,0.0539
CCCCATGA,-0.0735
GTAAGCCA,-0.14

# Set 4
# Target: Interferon regulatory factor 5, full length, phosphomimetic (IRF5, Homo sapiens, UniProt Q13568-2, residues 1-514, S451D/S453D/S456D/S462D)
# Method: protein-binding microarray
# Form: double-stranded DNA, one strand shown
# Matrix: in vitro
# Tested at: 940 nM top
# Setting: 60-bp whole probe
# With: salmon DNA 0.4 mg/ml
# Baseline: random background probes
# Direction: higher = stronger binding
# Shared flanks, not repeated: GCCTAGCAC … GTCTTGATTCGCTTGACGCTGCTG
Sequence,fitted relative affinity [z-score]
GACGGTATCAGGTTTCGGGACGTGCTA,3.97
GACGATATCGGGTATCGTGACGTGCTA,0.275
ACTCAGCTCCTCTTCCAGGCGTGCTAG,-0.0707
TTCTCTAACCTCTCTAATAAAGTGCTA,1.29
TCAAATCTGTGTTATTAAACTGTGCTA,0.318
GACGTTATCGGGACTGGAGACGTGCTA,-0.242
TTAGGTTTCGTACTGCTTTAGTGCTAG,6.48
GACGGACTGCTTATCCTGAAGTGCTAG,-0.35
GACGATTTCAGTCTCGAGCCGTGCTAG,0.947
TTAGGTTTCGGTCTCGTTTAGTGCTAG,15.1
GACGGTTCCCTTTTCCTGTCGTGCTAG,2.17
GAGGCTTTTTTTTTTTTTTTGTGCTAG,0.326
AAACAAATAAGCCTTACTTGGTGCTAG,-0.0866
GACGGTCTCATTCTCCTGACGTGCTAG,1.87
TTAGGACTGGGTTTCGCTTAGTGCTAG,3.24
TTCTCTATTGCTTTCTCTTTGTGCTAG,2.78
TTAGAAATGAGTCTCGATTAGTGCTAG,3.16
CAAGTTTCTCCTTTCGGAATGTGCTAG,4.15
GACGCACTGGGGACTGGGGACGTGCTA,0.0203

# Set 5
# Target: CCNB2, cyclin fold, Cln2 fusion (human)
# Method: yeast growth competition, sequencing
# Matrix: yeast
# Setting: strong parent motif
# Baseline: not given
# Direction: higher = stronger binding
# Starting sequence: PKMYT1 docking peptide (human); SFEPRNLLSLFED
Variant,normalised enrichment score
L8S,0.448
L7V,-0.802
D13I,0.243
N6S,0.0963
R5Q,0.857
S1P,1.16
L8K,-0.164
F11N,-0.203
E12V,0.283
F11Y,0.0396
L7N,-0.451
E3G,1.18
F2G,0.107
D13Q,1.1
L7H,-0.208
R5N,-0.0777

# A few entries again (set 3):
Sequence,E-score
TACACAGA,0.17
CAACTAAC,0.0369
ATTCACAA,0.24
GTTCTAAA,0.142
ATACTCGC,-0.0079
CCTATAGA,0.156
AGTTATAC,0.226
ATGCAGCA,-0.0663
GACTTAGA,0.0204
GACATAAA,0.259
GCTCGTCC,-0.168
AGACCGCC,-0.197
ACGTGAAT,-0.0155
CTATCCAA,0.0539
CCCCATGA,-0.0735
